Results of several laboratories.
Numbered parts are unrelated; each lists some results of a single study. Changes are numbered by the printed parent chain.

Sample 1
Target: Max-binding protein MNT, bHLH-zipper, MAX partner unstated (MNT, Homo sapiens, UniProt Q99583, residues 220-300)
Method: protein-binding microarray
Form: double-stranded DNA, one strand shown
Medium: in vitro
Tested at: not given
Notes: k-mer, scored over probes, only values ≥0.25
Direction: higher = stronger binding
Target sequence (chain): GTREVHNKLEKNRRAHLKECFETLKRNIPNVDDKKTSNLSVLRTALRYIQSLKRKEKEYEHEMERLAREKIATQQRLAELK
Strand	E-score
CGGCATGA	0.276
ATACCATG	0.263
ACGCATGG	0.442
AAACGTGT	0.402
CGTGGGGC	0.398
CCACGTTA	0.392
ATGCCATG	0.32
CATGCATA	0.274
CAGGTGCG	0.261
CAACATGC	0.353
ATGGGTGG	0.301
CACGCTCC	0.364
AACGTGCC	0.397
ACCCCATG	0.387
CAGACCCC	0.272
AGCATGGG	0.379
ACGAGGTG	0.304
ACCACGTG	0.498
ATGTGATC	0.328
CCCATGCA	0.349
CCCCGTGC	0.393
ATGCACGC	0.421
CAACATGA	0.258
ATGGGGCA	0.276
ACATGCAT	0.349

Sample 2
Target: CCND3, cyclin fold, Cln2 fusion (human)
Method: yeast growth competition, sequencing
Medium: yeast
Notes: weak parent motif
Baseline: not given
Direction: higher = stronger binding
Starting sequence: PKN2 docking peptide (human); VSAVQKLDFSDTM
Variant	normalised enrichment score
D8R	0.107
V1L	0.118
S2N	0.107
V4C	0.0837
S2I	0.122
V1P	0.15
D11G	0.116
D8G	0.109
D11Q	0.0624
K6N	0.168
T12D	0.115
M13W	0.134
M13L	0.0987
V4Y	0.0916
D11K	0.0446
K6A	0.15
S2D	0.0364
M13R	0.12
V1Q	0.15
L7A	0.0428
V4W	0.0845
F9A	0.115
F9H	0.0703
K6W	0.145
F9V	0.0685

Sample 3
Target: ABI1, truncated, D143A, DHFR fusion (Arabidopsis thaliana)
Method: DHFR PCA, deep sequencing
Medium: yeast
Notes: methotrexate growth selection, single substitutions
With: (+)-ABA 0.11 µM
Baseline: wild-type fitted maximum
Direction: higher = stronger binding
Starting sequence: PYL1, truncated, DHFR fusion (Arabidopsis thaliana); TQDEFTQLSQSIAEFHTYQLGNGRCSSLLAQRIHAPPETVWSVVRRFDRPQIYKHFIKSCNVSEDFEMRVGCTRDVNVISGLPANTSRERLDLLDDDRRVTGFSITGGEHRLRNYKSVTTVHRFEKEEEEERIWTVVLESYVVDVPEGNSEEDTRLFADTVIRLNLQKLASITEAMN
Variant	relative binding score [%]
L93K	3.17
L91C	-7.06
R99G	-4.21
L91S	-0.798
E130N	44.4
S11A	54.3
H122K	-11.1
E139R	4.41
S150D	20.3
F47I	-0.984
C25Y	-2.48
N177P	26.7
I133D	63.2
H122R	-1.36
W134K	-0.356
Q2G	16.9
C60H	2.26
K116M	-0.329

Sample 4
Target: RNA binding protein fox-1 homolog 2, RRM domain, GST-SBP tag (RBFOX2, Homo sapiens, UniProt O43251-10, residues 100-194)
Method: RNA Bind-n-Seq
Form: RNA
Medium: in vitro
Tested at: 365 nM
Notes: natural RNA segment, single round, ends assumed
Baseline: no-protein control
Direction: higher = stronger binding
All sequences stand within: GGGAGUUCUACAGUCCGACGAUC … UGGAAUUCUCGGGUGCCAA
Target sequence (chain): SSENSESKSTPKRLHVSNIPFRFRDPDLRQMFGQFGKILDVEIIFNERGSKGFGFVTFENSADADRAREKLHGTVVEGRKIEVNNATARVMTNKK
Strand	RBNS enrichment (R)
GCCGAGGUUUCUAGUGCUUCAUAGUGGCUCUUGUUCUGAGUUCUGUCCUGAGCCUCUUGUUACCUUGUUACUUCAGCCUAGAGGACUGAGAAUGGAGAGCCCGAGAAGUG	0.703
GGAUGGGAGGGCUCAUUUGUUGAUAAAUAGCACUAUUUUCCCACACCUCAGCCUCCUGUCCCCGUCCUGGUCUUCCCUACACAGUCUGGAGAGGGCUCUGAAAGGUCCAC	0.348
UGCCAGCAUCCUGUAGCGCGGAUAGCUGCUUCCAUGGCCACAGGCCUGAACCGGUGUGUAUUUGGGGAUCUGGAUGUGUAUGGCCACGGUGUGGCAGCUUUUGGAUUUUU	3.67
GCAGGCAGCAAAACACCAAAUCACAACGCUUUGCUUCUCGACAUCAUGGGCCAGGUCCUCAGUUUCUAACUCUUUCCCUUCCCCACAGUUCGUUGUCGCCAUGCGGCUUU	0.297
UUGGAACAGCCAUGCCUUCCAAAAGCUAUCAACCUGGGCCCUGAGCCCUGUAAGCAGAUGCCCCAGAGCUGGGGUGUGAGAGAGGGGCUGGGGGACCCCACGAUACAGCC	0.425
AUUCCAGCCCUCCUUGAGCUCACUACUUGACCAGACUGGGUAAUGCAUCACCUCUUCUCAUCAGUGGUCAGGAGAAGUGCAGCUAGAAAGUGGCCCACACAAGCCGUCUG	0.994
UGCUGUCACUUCGUUGGUCCCUUGAAGAUCUCUGUGACCGGAUCUGCCUCCGUGGCUGGGAGACAUUCAUAACACAGAGGACUCAGUUCUGUUGGAAAGCCAGCAUGUGA	3.83
CUUUCCCACAUUUUCCUGUUUUCUUCUGAGCCCUCCAAACUGUUCCAGCCUCUGCCUGUUACCCAGUUCCAAAGUCACUUCCACAUUUUGGGUAUUUCUUCAGCAGGUCC	0.915
UAGGCCUCAGAUUGUGAUGAUCCAGGGAGUUAGCUCCCUAAAUUCUUGGGUGACUGAUGGUUUAACUUGGUAAGUUGUAAUCUUUCCUGAAAGAGGAAGGAGCUGAAGUU	0.393
CUCAUCCAAACAAUUUAAAAAUGAGUGUGAAGGGGGAACAAGUCAAAAUAUUUUUAAAAGAUCUUCAAAAGUAAUGCCUCUGUCUAGCAUGCCAACAAGAAUGCAUUGAU	13.6
CUUUCCUGCAAACCCAUUUCCAGCUCCUAGUAGCUUUCCUCCCAAAGGCUUUCUUUCCAAUCCUUUAUAGCUUUGGAGACGCCUCCCCAAUUCCCCAGGGAAGGAAACUG	0.471
UGGUGAAAGGAAAAUUGCUGGAGGAGGAAGUGCAGGCUCAGACCCAGUCAGUACAAAUGGAAAAGGUCCCACACUGGAACUGGCCGGAACUGGAAGCAGGGGAGGUACGA	0.578

Sample 5
Target: Sal-like protein 4, full length isoform B (SALL4, Homo sapiens, UniProt Q9UJQ4-2, residues 1-616)
Method: universal PBM
Form: double-stranded DNA, one strand shown
Medium: in vitro
Tested at: not given
Notes: 8-mer, flanks averaged, mean of replicates
Direction: higher = stronger binding
Construct (chain): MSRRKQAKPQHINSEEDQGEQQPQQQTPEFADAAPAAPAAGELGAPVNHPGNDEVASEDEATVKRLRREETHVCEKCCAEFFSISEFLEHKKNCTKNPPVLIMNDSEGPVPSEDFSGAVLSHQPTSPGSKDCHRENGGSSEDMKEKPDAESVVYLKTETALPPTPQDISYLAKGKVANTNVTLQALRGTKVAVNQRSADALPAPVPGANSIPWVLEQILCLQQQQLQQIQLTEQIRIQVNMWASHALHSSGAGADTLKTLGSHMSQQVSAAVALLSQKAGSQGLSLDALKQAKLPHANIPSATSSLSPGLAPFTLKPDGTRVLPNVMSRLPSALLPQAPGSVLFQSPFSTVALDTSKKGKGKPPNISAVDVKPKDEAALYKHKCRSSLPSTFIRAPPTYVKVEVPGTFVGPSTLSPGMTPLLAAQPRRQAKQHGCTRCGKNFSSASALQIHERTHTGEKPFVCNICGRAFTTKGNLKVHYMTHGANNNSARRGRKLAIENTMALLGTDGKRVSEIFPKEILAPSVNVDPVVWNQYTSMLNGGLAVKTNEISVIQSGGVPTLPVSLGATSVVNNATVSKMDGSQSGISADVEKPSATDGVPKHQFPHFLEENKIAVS
Strand	E-score
AATACTCT	0.303
AAGTCGAA	-0.0753
ACCAAACT	0.0393
CTCGGAGA	-0.219
AGTACCCA	0.0222
AACGTACT	0.0923
GTAGGTCA	-0.0754
GTTCGGCA	0.0393
AATGATCG	-0.0503
ATGTAGAC	0.154
CACGAGTC	-0.128
CACCGAAA	-0.0884
GCGCAACA	-0.04
CGGAAAAG	-0.132
AGGCGATG	-0.155
ATACCTTG	0.171
CAAGGCGG	-0.251
CACGCGGC	-0.236
ACATTCGA	0.0875
GCCAAGAC	-0.0941
ATTAAGTG	0.231
AGAAGCGC	-0.116
CGACGGAG	-0.127

Sample 6
Target: Histone acetyltransferase KAT6A, winged helix 1, GST fusion (KAT6A, Homo sapiens, UniProt Q92794, residues 1-85)
Method: protein binding microarray
Form: double-stranded DNA, one strand shown
Medium: in vitro
Tested at: not given
Notes: 8-mer, flanks averaged, mean of 2 arrays, mostly near background
Baseline: not given
Direction: higher = stronger binding
Residues (chain): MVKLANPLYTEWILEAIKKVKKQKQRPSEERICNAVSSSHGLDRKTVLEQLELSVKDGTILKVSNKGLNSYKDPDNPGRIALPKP
Strand	E-score
CAGCAAAG	-0.0882
CTAGCAAC	0.00594
ATCATACA	-0.0695
AGGTACAA	-0.261
GATGCCTA	-0.185
CGCAGCGA	0.227
AGAACTCT	-0.192
CCAGCGGC	0.289
GTTCACTA	-0.0341
CCTGTGTC	-0.129
TCGCCTCA	-0.0535
CCCAAATA	-0.349
GAGTTAAA	-0.0415
CATTGGTA	-0.0712
AAATTTGT	-0.248
CCAGCCGG	0.101
AGGAACAT	-0.253
AGAGCCTG	-0.236
CCTTCCTC	-0.202
AGCCAGGA	-0.163
GGTGAACA	-0.23
CGTGACGC	0.231
AGAGCATC	-0.102
CCCCTTCC	-0.0366
ATGCTACG	0.0905

Other studies, line by line
Substance	target	test	system	setting	scale	quantity	result
PhoQ, residues 284 288 289 292 302 303 ALASRC	PhoP, residues 12 14 15 18 19 LYHSL (Escherichia coli, UniProt P23836)	Sort-seq, refers to: YFP reporter	E. coli	PhoQ-PhoP variant library, with: 10 µM Mg2+	baseline: high Mg2+ state, higher = stronger signaling	fold induction	13.5

For quick reference, copied from above (sample 6):
Strand	E-score
AGAACTCT	-0.192
GGTGAACA	-0.23
AGAGCATC	-0.102
CCCCTTCC	-0.0366
TCGCCTCA	-0.0535
CCTTCCTC	-0.202
AGGAACAT	-0.253
CCAGCCGG	0.101
AGGTACAA	-0.261
AGCCAGGA	-0.163
CGTGACGC	0.231
AGAGCCTG	-0.236
ATCATACA	-0.0695
GATGCCTA	-0.185
CTAGCAAC	0.00594
CAGCAAAG	-0.0882
CCAGCGGC	0.289
CCCAAATA	-0.349
GTTCACTA	-0.0341
GAGTTAAA	-0.0415
